Measurements from different studies.
Numbered parts are unrelated; each lists some results of a single study. “And” joins repeats or separate records; there may be more than shown.
Sequence of UniProt P15170 (whole entry, looked up): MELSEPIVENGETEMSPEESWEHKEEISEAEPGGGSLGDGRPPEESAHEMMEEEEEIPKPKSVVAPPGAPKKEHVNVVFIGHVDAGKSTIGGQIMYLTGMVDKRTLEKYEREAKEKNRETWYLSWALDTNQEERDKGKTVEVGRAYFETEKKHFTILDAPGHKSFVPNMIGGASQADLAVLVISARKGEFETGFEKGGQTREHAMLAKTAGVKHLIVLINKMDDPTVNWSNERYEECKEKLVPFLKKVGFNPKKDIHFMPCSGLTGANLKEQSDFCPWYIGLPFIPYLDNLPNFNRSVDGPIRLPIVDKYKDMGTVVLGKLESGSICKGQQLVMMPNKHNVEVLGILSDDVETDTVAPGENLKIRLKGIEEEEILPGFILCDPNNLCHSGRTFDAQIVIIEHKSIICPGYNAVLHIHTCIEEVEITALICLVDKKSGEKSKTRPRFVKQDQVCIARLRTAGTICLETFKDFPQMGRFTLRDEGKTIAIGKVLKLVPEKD

Study 1 — organism: Leishmania donovani; effect on: parasite growth; method: resazurin; notes: promastigote
SMILES | IC50
Clc1ccc2nc3c(c(Nc4ccc5c(c4)OCCO5)c2c1)CCC3 | 0.7 µM
CC(=O)c1cccc(Nc2c3c(nc4ccccc24)CCC3)c1 | 3.52 µM
CCOC(=O)c1ccc(Nc2c3c(nc4ccccc24)CCC3)cc1 | 6.87 µM
COc1cc(Nc2c3c(nc4ccccc24)CCC3)cc(OC)c1OC | 2.14 µM
c1ccc2c(Nc3ccc4c(c3)OCCO4)c3c(nc2c1)CCC3 | 1.82 µM
Fc1cccc(Nc2c3c(nc4ccccc24)CCC3)c1 | 7.41 µM
COc1ccccc1Nc1c2c(nc3ccccc13)CCC2 | 4.12 µM

Study 2 — mode: degrader
Compound: Cn1cc(-c2cccc(CN3CCC4(CC3)COc3c4ccc4c3CN([C@H]3CCC(=O)NC3=O)C4=O)c2)cn1
SALL4: Sal-like protein 4 (SALL4, Homo sapiens, UniProt Q9UJQ4)
Sequence of UniProt Q9UJQ4 (whole entry, looked up): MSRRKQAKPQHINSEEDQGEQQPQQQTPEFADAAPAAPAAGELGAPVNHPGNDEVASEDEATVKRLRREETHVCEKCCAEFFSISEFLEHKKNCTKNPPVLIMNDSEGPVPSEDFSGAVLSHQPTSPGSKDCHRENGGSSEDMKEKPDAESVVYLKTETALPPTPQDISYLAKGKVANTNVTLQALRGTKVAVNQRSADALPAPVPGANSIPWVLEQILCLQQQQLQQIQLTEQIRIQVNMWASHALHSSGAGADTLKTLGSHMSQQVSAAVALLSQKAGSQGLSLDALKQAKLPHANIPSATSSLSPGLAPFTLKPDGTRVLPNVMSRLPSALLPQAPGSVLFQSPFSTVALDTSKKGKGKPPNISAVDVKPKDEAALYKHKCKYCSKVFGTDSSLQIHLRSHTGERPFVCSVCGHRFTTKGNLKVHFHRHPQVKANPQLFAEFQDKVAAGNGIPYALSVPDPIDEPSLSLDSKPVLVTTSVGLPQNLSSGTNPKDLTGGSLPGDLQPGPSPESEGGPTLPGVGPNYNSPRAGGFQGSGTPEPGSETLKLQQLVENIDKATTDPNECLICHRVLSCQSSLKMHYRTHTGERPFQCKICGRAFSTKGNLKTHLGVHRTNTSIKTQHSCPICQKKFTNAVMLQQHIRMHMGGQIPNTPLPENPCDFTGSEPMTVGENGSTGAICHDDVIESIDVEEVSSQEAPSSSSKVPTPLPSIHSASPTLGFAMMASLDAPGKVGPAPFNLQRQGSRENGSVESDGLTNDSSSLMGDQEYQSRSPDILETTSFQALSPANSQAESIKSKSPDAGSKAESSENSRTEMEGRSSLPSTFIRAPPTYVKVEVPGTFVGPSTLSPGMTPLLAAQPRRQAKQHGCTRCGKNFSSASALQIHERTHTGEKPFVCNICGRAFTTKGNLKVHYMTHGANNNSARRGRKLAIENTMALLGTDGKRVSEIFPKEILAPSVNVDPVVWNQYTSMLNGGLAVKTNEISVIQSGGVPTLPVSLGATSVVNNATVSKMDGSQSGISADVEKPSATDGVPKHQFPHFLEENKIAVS
DNA-binding protein Ikaros: DNA-binding protein Ikaros (Homo sapiens, UniProt Q13422)
Sequence of UniProt Q13422 (whole entry, looked up): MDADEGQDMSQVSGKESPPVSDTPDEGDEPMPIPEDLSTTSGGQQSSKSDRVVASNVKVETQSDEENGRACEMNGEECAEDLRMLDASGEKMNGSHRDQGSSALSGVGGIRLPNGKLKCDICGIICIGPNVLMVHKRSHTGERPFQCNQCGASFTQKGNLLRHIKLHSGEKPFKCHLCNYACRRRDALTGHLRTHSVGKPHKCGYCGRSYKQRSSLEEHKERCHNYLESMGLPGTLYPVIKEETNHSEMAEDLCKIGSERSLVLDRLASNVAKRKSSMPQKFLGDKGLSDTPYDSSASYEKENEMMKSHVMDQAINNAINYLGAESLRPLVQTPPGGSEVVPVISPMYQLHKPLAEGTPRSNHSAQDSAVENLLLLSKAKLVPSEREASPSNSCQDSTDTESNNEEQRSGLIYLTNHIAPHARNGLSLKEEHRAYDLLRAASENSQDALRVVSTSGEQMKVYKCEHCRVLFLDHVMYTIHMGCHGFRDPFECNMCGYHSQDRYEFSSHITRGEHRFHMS
CRBN/Zinc finger protein Helios: CRBN/Zinc finger protein Helios (Homo sapiens, UniProt Q96SW2+Q9UKS7)
Sequence of UniProt Q9UKS7 (whole entry, looked up): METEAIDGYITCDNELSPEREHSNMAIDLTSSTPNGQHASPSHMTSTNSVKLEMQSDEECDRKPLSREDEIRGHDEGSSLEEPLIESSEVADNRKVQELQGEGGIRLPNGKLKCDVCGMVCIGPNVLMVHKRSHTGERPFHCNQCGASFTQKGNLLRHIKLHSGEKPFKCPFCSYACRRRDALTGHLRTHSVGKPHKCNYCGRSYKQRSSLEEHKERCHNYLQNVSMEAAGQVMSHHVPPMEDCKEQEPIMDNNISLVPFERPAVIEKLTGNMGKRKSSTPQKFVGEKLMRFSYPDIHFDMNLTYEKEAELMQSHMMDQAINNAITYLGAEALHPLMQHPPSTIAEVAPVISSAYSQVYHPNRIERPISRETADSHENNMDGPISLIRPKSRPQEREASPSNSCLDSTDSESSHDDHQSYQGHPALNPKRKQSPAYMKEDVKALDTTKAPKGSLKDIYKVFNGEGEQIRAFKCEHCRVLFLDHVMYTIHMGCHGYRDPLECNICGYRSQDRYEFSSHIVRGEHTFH
Sequence of UniProt Q96SW2 (whole entry, looked up): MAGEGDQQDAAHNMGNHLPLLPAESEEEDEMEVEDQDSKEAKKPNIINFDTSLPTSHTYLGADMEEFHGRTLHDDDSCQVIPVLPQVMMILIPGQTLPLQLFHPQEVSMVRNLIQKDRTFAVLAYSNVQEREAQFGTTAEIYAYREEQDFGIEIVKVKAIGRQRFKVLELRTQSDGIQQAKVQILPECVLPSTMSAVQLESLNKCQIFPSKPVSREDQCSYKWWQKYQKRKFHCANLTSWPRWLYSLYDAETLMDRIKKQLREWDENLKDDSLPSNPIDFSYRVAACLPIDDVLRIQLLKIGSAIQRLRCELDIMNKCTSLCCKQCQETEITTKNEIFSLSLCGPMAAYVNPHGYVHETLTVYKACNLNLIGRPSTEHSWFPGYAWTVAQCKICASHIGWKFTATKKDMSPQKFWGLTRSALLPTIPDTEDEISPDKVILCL
CSNK1A1: Casein kinase I isoform alpha (CSNK1A1, Homo sapiens, UniProt P48729)
Sequence of UniProt P48729 (whole entry, looked up): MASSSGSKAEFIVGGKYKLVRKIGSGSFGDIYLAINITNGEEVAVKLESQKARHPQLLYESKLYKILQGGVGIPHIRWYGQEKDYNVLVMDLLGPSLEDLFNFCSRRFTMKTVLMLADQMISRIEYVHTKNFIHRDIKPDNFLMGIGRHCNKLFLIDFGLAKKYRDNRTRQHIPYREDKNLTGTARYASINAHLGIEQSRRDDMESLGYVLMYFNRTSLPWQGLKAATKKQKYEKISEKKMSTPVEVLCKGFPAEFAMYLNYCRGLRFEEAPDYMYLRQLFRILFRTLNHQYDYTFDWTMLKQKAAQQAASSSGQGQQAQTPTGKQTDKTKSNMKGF
IKZF4: Zinc finger protein Eos (IKZF4, Homo sapiens, UniProt Q9H2S9)
Sequence of UniProt Q9H2S9 (whole entry, looked up): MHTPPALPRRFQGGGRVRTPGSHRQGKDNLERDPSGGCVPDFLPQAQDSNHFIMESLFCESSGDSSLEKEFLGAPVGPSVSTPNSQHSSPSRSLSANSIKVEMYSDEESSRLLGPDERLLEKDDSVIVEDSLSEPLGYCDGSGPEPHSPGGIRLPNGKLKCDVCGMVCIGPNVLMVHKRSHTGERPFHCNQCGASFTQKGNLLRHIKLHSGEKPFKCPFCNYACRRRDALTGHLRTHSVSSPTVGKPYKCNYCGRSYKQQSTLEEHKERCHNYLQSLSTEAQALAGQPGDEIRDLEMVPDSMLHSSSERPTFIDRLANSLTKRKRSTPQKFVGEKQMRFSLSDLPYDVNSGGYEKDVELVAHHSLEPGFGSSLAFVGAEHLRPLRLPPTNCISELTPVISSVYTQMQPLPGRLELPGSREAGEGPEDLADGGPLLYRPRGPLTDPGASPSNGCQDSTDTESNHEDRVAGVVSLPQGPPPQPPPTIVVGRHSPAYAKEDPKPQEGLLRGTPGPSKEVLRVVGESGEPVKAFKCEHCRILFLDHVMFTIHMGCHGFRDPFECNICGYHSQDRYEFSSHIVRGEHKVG
target | method | cells | tested at | time | remaining protein
SALL4 | HiBiT | HEK293 | 370.37 nM | – | 69.6% and 64.6%
GSPT1 (Homo sapiens, UniProt P15170) | HiBiT | HEK293 | 1.524 nM | – | 94.8% and 102%
DNA-binding protein Ikaros | HiBiT | HEK293 | 0.1694 nM | – | 106% and 99.8%
CRBN/Zinc finger protein Helios | flow cytometry | primary human regulatory T cells | 0.4572 nM | 3 h | 97% and 106%
DNA-binding protein Ikaros | HiBiT | HEK293 | 13.72 nM | – | 94.1% and 92.6%
CSNK1A1 | HiBiT | HEK293 | 4.572 nM | – | 101% and 104%
CSNK1A1 | HiBiT | HEK293 | 123.5 nM | – | 97.9% and 99.4%
CSNK1A1 | HiBiT | HEK293 | 3333.33 nM | – | 95% and 98.6%
IKZF4 | HiBiT | HEK293 | 333.3 nM | 3 h | 119% and 115%
CRBN/Zinc finger protein Helios | flow cytometry | primary human regulatory T cells | 333.3 nM | 3 h | 25.8% and 36%
IKZF4 | HiBiT | HEK293 | 12.35 nM | 3 h | 111% and 117%
IKZF4 | HiBiT | HEK293 | 111.1 nM | 6 h | 104% and 105%
CSNK1A1 | HiBiT | HEK293 | 0.5081 nM | – | 101% and 98.5%
SALL4 | HiBiT | HEK293 | 13.72 nM | – | 76.8% and 74.4%
DNA-binding protein Ikaros | HiBiT | HEK293 | 1111.11 nM | – | 92.5% and 94.2%

Study 3 — effect on: binding; mode: competitor; method: NanoBRET; cells: HEK293
SMILES: CN1CCC[C@H]1COc1nc2c(c(N3CCN(C(=O)C(F)(F)F)[C@@H](CC#N)C3)n1)CCN(c1cccc3cccc(Cl)c13)C2
KRAS Q61H: GTPase KRas (KRAS, Homo sapiens, UniProt P01116, Q61H)
KRAS G12D: GTPase KRas (KRAS, Homo sapiens, UniProt P01116, G12D)
target | tested at | normalized BRET
GTPase KRas (KRAS, Homo sapiens, UniProt P01116, Q61R) | 5.08 nM | 104% and 91.3% and 99.5%
KRAS Q61H | 1.24 µM | 86.6% and 76.2% and 71% and 70.3%
GTPase KRas (KRAS, Homo sapiens, UniProt P01116, G13D) | 3.7 µM | 42.1% and 72.7% and 72.3% and 48.5%
GTPase KRas (KRAS, Homo sapiens, UniProt P01116, Q61L) | 11.1 µM | 48.5% and 50.6% and 48.2%
KRAS G12D | 33.3 µM | 106% and 96.4% and 138%
KRAS Q61H | 11.1 µM | 27.7% and 35.1% and 21.9% and 52.7%
KRAS G12D | 15.2 nM | 102% and 100% and 98.2%
KRAS G12D | 1.24 µM | 91.5% and 92.5% and 90.8%

Mixed results
SMILES | organism | assay | test system | setting | quantity | result
C=CCN1C(=O)C(O)(C(=O)O)Oc2cc(F)ccc21 (stereo not shown) | Arabidopsis thaliana | root length | Col-0 | 100 µg/mL, 7 days, seed germination, dark | inhibition | 52.3%

Repeated from above (study 2):
target | method | cells | tested at | time | remaining protein
CSNK1A1 | HiBiT | HEK293 | 4.572 nM | – | 101% and 104%
CSNK1A1 | HiBiT | HEK293 | 123.5 nM | – | 97.9% and 99.4%
